Measured values gathered from unrelated publications.
Parts stem from different laboratories: compare values within a part only. Values joined by “and” are separate records of one study, mostly repeats; a detail may differ. Substitutions count along the parent as printed.
Sequence of UniProt P11802 (whole entry, looked up): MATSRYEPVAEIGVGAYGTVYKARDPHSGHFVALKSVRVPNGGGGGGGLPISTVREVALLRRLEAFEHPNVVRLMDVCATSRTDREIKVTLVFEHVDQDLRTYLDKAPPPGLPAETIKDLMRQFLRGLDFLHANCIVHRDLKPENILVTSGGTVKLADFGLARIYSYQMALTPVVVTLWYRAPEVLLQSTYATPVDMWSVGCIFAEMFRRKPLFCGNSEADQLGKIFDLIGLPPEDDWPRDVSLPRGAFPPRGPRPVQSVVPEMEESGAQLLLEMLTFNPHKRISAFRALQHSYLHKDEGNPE
Sequence of UniProt Q96SW2 (whole entry, looked up): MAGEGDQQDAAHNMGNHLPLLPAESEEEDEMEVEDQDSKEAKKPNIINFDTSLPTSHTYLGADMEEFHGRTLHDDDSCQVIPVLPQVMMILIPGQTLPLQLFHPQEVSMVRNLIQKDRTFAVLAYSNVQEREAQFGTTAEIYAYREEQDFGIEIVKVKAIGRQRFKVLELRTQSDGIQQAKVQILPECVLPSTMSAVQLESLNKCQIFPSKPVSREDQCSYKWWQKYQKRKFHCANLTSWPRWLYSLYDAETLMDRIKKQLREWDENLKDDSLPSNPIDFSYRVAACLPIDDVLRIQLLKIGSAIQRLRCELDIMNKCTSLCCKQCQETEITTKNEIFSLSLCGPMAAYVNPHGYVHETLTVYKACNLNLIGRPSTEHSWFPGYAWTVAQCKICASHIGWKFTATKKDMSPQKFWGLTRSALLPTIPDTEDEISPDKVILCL
Sequence of UniProt Q99759 (whole entry, looked up): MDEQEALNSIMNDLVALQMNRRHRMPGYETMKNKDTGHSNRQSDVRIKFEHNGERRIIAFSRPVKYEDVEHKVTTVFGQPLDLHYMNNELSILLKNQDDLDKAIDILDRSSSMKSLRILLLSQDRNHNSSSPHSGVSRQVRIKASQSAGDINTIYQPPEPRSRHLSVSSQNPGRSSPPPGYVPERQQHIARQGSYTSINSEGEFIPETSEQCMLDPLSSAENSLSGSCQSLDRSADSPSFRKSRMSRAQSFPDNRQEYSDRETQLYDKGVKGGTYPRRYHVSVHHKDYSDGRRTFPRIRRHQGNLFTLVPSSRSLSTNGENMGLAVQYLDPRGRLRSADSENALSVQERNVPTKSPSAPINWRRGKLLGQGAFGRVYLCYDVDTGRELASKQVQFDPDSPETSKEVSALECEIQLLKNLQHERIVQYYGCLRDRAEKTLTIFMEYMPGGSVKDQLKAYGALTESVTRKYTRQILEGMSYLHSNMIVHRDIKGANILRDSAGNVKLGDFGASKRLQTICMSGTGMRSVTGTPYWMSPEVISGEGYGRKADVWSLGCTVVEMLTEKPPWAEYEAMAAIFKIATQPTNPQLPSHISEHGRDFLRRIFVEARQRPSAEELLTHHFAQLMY
Sequence of UniProt O95747 (whole entry, looked up): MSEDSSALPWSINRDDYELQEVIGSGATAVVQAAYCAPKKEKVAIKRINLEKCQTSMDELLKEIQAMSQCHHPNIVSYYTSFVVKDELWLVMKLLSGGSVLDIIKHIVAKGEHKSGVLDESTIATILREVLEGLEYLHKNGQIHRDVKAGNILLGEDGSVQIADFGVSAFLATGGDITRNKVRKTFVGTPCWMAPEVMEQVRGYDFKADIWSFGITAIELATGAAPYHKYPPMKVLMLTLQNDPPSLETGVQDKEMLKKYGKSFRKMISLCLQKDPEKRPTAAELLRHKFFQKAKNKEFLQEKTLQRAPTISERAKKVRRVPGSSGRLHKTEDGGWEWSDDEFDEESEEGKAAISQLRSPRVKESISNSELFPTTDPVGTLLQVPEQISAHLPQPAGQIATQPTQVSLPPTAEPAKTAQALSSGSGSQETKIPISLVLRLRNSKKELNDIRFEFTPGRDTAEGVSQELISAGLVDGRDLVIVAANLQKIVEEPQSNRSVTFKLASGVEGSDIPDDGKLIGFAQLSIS
Sequence of UniProt Q9UKS7 (whole entry, looked up): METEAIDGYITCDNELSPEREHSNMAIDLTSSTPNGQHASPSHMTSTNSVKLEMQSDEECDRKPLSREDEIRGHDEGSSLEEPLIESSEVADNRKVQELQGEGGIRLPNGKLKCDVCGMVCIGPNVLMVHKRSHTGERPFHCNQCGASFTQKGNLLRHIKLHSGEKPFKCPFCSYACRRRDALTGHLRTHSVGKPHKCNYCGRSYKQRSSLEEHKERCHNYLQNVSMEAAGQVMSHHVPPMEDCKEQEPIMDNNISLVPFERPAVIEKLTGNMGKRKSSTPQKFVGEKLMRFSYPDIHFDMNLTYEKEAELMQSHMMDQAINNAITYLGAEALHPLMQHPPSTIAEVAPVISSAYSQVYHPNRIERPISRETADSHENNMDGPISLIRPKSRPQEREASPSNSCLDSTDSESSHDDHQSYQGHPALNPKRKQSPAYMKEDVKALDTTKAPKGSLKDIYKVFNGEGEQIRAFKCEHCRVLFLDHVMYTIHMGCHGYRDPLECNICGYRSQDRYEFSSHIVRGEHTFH
Sequence of UniProt Q15831 (whole entry, looked up): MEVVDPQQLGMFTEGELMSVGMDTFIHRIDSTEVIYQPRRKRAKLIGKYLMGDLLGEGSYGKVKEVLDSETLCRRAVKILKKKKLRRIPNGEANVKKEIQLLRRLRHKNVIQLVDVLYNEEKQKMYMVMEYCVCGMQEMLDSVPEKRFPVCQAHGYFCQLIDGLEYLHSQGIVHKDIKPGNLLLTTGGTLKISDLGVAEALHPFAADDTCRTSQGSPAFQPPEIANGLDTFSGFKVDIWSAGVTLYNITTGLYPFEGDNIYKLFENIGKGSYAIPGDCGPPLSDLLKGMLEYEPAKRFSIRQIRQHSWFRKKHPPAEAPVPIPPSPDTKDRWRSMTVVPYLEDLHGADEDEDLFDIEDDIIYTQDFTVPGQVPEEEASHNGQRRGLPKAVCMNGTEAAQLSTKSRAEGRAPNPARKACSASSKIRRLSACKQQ
Sequence of UniProt P46098 (whole entry, looked up): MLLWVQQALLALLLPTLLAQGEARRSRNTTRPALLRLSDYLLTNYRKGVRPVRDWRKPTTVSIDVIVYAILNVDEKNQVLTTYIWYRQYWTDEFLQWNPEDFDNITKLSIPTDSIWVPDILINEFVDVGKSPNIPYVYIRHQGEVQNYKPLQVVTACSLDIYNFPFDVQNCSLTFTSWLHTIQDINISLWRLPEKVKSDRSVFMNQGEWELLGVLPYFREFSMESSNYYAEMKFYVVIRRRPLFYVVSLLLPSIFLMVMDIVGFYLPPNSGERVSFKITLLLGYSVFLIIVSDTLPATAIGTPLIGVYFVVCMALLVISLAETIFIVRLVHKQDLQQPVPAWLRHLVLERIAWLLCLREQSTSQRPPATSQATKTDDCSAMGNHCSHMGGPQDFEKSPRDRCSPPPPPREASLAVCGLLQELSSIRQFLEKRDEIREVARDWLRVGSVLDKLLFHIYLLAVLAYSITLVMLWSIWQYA
Sequence of UniProt P35626 (whole entry, looked up): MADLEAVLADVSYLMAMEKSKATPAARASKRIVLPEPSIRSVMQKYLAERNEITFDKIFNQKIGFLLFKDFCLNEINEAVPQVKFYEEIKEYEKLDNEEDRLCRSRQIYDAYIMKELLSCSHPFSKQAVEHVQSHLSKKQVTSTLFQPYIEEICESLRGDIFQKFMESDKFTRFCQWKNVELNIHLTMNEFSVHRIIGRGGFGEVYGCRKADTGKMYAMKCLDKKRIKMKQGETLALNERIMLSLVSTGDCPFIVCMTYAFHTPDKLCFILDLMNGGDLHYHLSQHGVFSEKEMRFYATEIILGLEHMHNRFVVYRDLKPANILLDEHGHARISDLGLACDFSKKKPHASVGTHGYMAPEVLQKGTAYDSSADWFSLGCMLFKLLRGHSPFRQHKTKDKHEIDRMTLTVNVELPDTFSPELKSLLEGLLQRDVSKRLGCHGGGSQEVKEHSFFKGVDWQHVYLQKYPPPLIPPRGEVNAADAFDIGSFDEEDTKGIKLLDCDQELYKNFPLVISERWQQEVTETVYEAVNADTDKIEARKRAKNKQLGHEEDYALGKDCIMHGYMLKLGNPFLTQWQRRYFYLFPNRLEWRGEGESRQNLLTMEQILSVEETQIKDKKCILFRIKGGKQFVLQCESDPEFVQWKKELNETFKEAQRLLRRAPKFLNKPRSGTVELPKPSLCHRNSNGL
Sequence of UniProt Q00535 (whole entry, looked up): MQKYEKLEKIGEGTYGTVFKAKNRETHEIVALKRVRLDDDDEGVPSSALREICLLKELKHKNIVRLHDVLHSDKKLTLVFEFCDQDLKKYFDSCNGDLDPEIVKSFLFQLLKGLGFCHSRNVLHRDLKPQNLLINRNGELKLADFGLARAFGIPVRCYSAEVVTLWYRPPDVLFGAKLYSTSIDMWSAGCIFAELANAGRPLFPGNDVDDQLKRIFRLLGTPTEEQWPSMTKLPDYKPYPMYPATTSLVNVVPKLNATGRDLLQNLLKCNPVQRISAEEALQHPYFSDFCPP
Sequence of UniProt Q13976 (whole entry, looked up): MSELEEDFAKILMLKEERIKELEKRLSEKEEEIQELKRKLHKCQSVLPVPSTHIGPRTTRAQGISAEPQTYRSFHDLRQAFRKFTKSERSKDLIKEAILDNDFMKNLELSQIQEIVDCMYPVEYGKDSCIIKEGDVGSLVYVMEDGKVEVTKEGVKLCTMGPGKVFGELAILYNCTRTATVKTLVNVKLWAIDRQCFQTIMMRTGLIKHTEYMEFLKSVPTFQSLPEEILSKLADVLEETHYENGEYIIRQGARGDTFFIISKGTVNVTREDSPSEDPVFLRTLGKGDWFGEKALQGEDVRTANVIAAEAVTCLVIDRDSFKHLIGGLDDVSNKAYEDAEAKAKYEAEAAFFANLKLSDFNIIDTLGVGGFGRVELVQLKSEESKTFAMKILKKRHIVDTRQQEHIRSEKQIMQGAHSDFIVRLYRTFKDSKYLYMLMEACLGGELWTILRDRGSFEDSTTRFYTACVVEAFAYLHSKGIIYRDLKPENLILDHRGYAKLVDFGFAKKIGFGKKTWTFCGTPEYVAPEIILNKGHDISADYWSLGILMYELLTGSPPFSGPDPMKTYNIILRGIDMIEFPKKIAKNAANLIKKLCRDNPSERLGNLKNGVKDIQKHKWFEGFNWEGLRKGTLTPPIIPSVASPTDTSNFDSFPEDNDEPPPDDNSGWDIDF

Series 1 — technique: LC-MS/MS; species: human; medium: plasma; route: oral
SMILES: COc1ccc(-c2c(Nc3ccccn3)[nH]c3c(C4=CCCCC4)c(-c4ccccc4)nn3c2=O)cc1
It gave 56.2% and 98.5% and 92.9% and 33.7% for “AUC extrapolated fraction, observed” (100 mg once daily).
It gave 68.5% for “AUC extrapolated fraction, observed” (50 mg once daily).
The “AUC extrapolated fraction, observed” was 18% and 39.9% and 48.2% and 47.6% (400 mg once daily).

Series 2
SMILES: CC(C)n1cnc(-c2ccc(F)cc2)c1-c1ncc(C(=O)Nc2ccc(N3CCN(C)CC3)cc2)[nH]1
measured: lower respiratory tract infection; idiopathic pulmonary fibrosis patients; 60 mg once daily — “patients with TEAE”: 0%.
It gave 0% for “patients with TEAE” (phase 2a trial; idiopathic pulmonary fibrosis patients; oral, 30 mg once daily, disc protrusion, grade 3).
For measured: soft tissue infection; idiopathic pulmonary fibrosis patients; 30 mg once daily: “patients with TEAE” read 0%.
For phase 2a trial; patients with idiopathic pulmonary fibrosis; dose not given, renal and urinary disorders SOC, grade 4, all arms: “patients with TEAE” read 0%.

Series 3 — technique: DHFR PCA, deep sequencing; medium: yeast; with: (+)-ABA 0.032 µM; relative to: wild-type fitted maximum; direction: higher = stronger binding
Target: ABI1, truncated, D143A, DHFR fusion (Arabidopsis thaliana)
Notes: methotrexate growth selection, single substitutions
Starting sequence: PYL1, truncated, DHFR fusion (Arabidopsis thaliana); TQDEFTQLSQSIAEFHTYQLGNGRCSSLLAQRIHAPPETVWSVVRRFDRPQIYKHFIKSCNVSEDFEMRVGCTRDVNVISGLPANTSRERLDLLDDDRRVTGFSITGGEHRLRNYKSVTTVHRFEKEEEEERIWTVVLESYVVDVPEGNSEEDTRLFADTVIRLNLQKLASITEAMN
`I172D`: “relative binding score” -19.2%.
Under “relative binding score”, `L138G` is recorded as -1.21%.
`M176G`: “relative binding score” 7.14%.
For `R98G`, “relative binding score” read -0.324%.
For `E38P`, “relative binding score” read 5.06%.
Under “relative binding score”, `V118W` is recorded as -3.91%.
Under “relative binding score”, `S9I` is recorded as 14.2%.
`Q51L` — result for “relative binding score”: -6.97%.

Series 4 — observed: enzyme activity; action: inhibitor; tested at: 0.5 µM; relative to: control
SMILES: CC(C)[C@H](CO)Nc1nc(Nc2cccc(Cl)c2)c2ncn(C(C)C)c2n1
For STE20/SPS1-related proline-alanine-rich protein kinase (STK39, Homo sapiens, UniProt Q9UEW8): remaining activity read 99.2%.
Tyrosine-protein kinase Lyn, isoform B (LYN, Homo sapiens, UniProt P07948) — remaining activity: 82.5%.
Serine/threonine-protein kinase Chk2 (CHEK2, Homo sapiens, UniProt O96017) — remaining activity: 88.1%.
The remaining activity was 102% (Mitogen-activated protein kinase 9 (MAPK9, Homo sapiens, UniProt P45984)).
It gave 81.8% for remaining activity (Serine/threonine-protein kinase 10 (STK10, Homo sapiens, UniProt O94804)).
The remaining activity was 3.87% (Cyclin-dependent kinase 5, with p25 (CDK5, Homo sapiens, UniProt Q00535)).
It gave 102% for remaining activity (cAMP-dependent protein kinase catalytic subunit alpha (PRKACA, Homo sapiens, UniProt P17612)).
It gave 84.4% for remaining activity (Serine/threonine-protein kinase STK11 (STK11, Homo sapiens, UniProt Q15831)).
It gave 83.4% for remaining activity (Cyclin-dependent kinase 4, with cyclin D1 (CDK4, Homo sapiens, UniProt P11802)).
For Mitogen-activated protein kinase kinase kinase 3 (MAP3K3, Homo sapiens, UniProt Q99759): remaining activity read 102%.
The remaining activity was 98.1% (TGF-beta receptor type-2 (TGFBR2, Homo sapiens, UniProt P37173)).
It gave 107% for remaining activity (Inhibitor of nuclear factor kappa-B kinase subunit beta (IKBKB, Homo sapiens, UniProt O14920)).
The remaining activity was 90.2% (cGMP-dependent protein kinase 1, isoform beta (PRKG1, Homo sapiens, UniProt Q13976)).
It gave 99.1% for remaining activity (G protein-coupled receptor kinase 3 (GRK3, Homo sapiens, UniProt P35626)).
The remaining activity was 94.4% (Serine/threonine-protein kinase OSR1 (OXSR1, Homo sapiens, UniProt O95747)).

Other studies, line by line
O=C1CCC(N2Cc3c(ccc4c3OCCC43CCN(Cc4ccccc4)CC3)C2=O)C(=O)N1 (stereo not drawn) gave a protein remaining of 80.7% (CRBN/Zinc finger protein Helios (Homo sapiens, UniProt Q96SW2+Q9UKS7); degrader, HiBiT; HEK293; 13.72 nM).
The inhibition of O=C(Nc1cccnn1)N1CCC(=Cc2cccc(Oc3ccc(C(F)(F)F)cn3)c2)CC1 is reported as 10.7% (5-hydroxytryptamine receptor 3A (HTR3A, Homo sapiens, UniProt P46098); binding, radioligand binding; 10 µM).
CN1CCC[C@H]1COc1nc2c(c(N3CCN(S(C)(=O)=O)[C@@H](CC#N)C3)n1)CCN(c1cccc3cccc(Cl)c13)C2 gave an IC50 of 0.84 µM (GTPase KRas (KRAS, Homo sapiens, UniProt P01116, Q61H); target engagement in cells, BRET).

For quick reference, copied from above (series 2):
It gave 0% for “patients with TEAE” (phase 2a trial; idiopathic pulmonary fibrosis patients; oral, 30 mg once daily, disc protrusion, grade 3).
For measured: soft tissue infection; idiopathic pulmonary fibrosis patients; 30 mg once daily: “patients with TEAE” read 0%.
For phase 2a trial; patients with idiopathic pulmonary fibrosis; dose not given, renal and urinary disorders SOC, grade 4, all arms: “patients with TEAE” read 0%.
